Results from different studies.
“And” joins repeats or separate records; there may be more than shown. ± gives the spread as reported.
Organism: Plasmodium falciparum

CCn1cc(-c2nc(C)no2)c(=O)c2cc(F)c(N3CCC(Cc4ccccc4)CC3)cc21
EC50 (parasite growth, [3H]hypoxanthine incorporation; Dd2; 72 h): 4 nM

Cc1cn(C2CC2)c(=O)c2nn(C)c(Cc3ccc(C(F)(F)F)nc3)c12
EC50 (parasite growth; 3D7): 50.1 nM

Cc1cc(NC2Cc3cc(F)c(F)cc3C2)n2nc(C(C)(F)F)nc2n1
EC50 (parasite growth; D6): 55 nM

COc1ccc(-n2ccnc2SCC(=O)Nc2cc(C(F)(F)F)ccc2Cl)c(OC)c1
EC50 (parasite growth, SYBR Green; 3D7 wild type; 72 h): 36 ± 7.1 nM

O=S(=O)(c1ccc(-c2ccc3ncnc(Nc4ccc(OCc5ccccc5)c(Cl)c4)c3c2)cc1)N1CCOCC1
EC50 (parasite growth, SYBR Green fluorescence; C235 (TM91C235), drug-resistant): 450 nM

Cc1ccc(N(C)c2ccc(NC(=O)CN(C)c3ccccc3N3CCCC3=O)cc2)cc1
EC50 (parasite growth, LDH; 3D7 population E, L562R mutant; 72 h): 158 nM

Cc1c(Cc2ccc(C(F)(F)F)nc2)c[nH]c1C(=O)NC(C)c1cnn(C)c1 (stereo not shown)
EC50 (SYBR Green; Uganda field isolates, Albumax medium; 72 h, unbound, ex vivo patient isolates): 2 nM

COc1ccc(NC(=O)CCNc2cc(C)nc(NCCc3ccc(F)cc3)n2)cc1
EC50 (parasite growth, SYBR Green; 3D7 DHODH E182D; 72 h): 1180 ± 180 nM

CCN1CCN(Cc2ccc(Nc3nc4ccc(Oc5ccnc(NC(C)=O)c5)cc4n3C)cc2C(F)(F)F)CC1
EC50 (SYBR Green I; Dd2; 72 h): 2700 ± 100 nM

Cc1cccc(C(=O)N2CCN(Cc3cccc(NC(=O)c4ccco4)c3)CC2)c1
EC50 (parasite growth, SYBR Green; 3D7 wild type; 72 h): 335 ± 86 nM

CC[C@H](C)[C@H](NC(=O)[C@H]([C@@H](C)CC)N(C)C(C)=O)C(=O)N[C@H](C(=O)N[C@@H](CC(C)C)C(=O)[C@@]1(C)CO1)[C@@H](C)O
EC50 (Dd2 β5 S28L resistant): 14 ± 1.5 nM

Cc1ccc(N(c2ccc(NC(=O)CN(C)c3ccccc3N3CCCC3=O)cn2)C(C)C)cc1F
EC50 (parasite growth, LDH; 3D7 population D, CSC1 L954F; 72 h): 8 nM

CCN(CC)CCCC(C)Nc1ccnc2cc(Cl)ccc12 (stereo not shown)
EC50 (ex vivo; Ugandan field isolates): 80 to 100 nM

CCn1cc(-c2nc(C)no2)c(=O)c2cc(F)c(N3CCC(C)CC3)cc21
EC50 (parasite growth, [3H]hypoxanthine incorporation; RF12; 72 h): 7 nM

Cc1cc(Nc2ccc(S(F)(F)(F)(F)F)cc2)n2nc(C(C)(F)F)nc2n1
EC50 (Dd2 β3 R190S resistant): 6.2 ± 1.3 nM

Cc1[nH]c2ccc(-c3ccccc3)cc2c(=O)c1Br
EC50 (parasite growth, SYBR Green; 3D7 wild type; 72 h): 165 ± 41 nM

Cc1ccc(N(C)c2ccc(NC(=O)CN(C)c3cccnc3N3CCCC3=O)cc2)cc1
EC50 (parasite growth, LDH; 3D7 population E, L562R mutant; 72 h): 643 nM

CCOCC(=O)N1CCC[C@H](C(=O)NCc2nc(-c3ccc(C#N)cc3)cs2)C1
EC50 (Dd2 β3 R190S resistant): 110 ± 49 nM

CCOC(=O)c1cn(CC)c2cc(N3CCC(Cc4ccccc4)CC3)c(F)cc2c1=O
EC50 (parasite growth, [3H]hypoxanthine incorporation; RF12; 72 h): 4 nM

N#Cc1c(F)cccc1N1CCN(c2ccc(O)cc2)CC1
EC50 (parasite growth; 3D7-E182D; 72 h): > 12500 nM

Cc1nnc(-c2ccc3ccn(CC(=O)Nc4ccccc4Cl)c3c2)o1
EC50 (parasite viability, SYBR Green flow cytometry; W2mef multidrug-resistant; 48 h, asexual blood stage): 272 nM

CC(C)N(c1ccc(Cl)c(F)c1)c1ccc(NC(=O)CN(C)c2ccccc2N2CCCC2=O)cn1
EC50 (parasite growth, LDH; 3D7 population D, CSC1 L954F; 72 h): 11 nM

CC[C@](O)(c1cnc(C(F)(F)F)c(Cl)c1)c1c2cnn(C3CC3)c(=O)c2nn1C
EC50 (parasite growth; 3D7): 1580 nM

Cc1noc(-c2cccs2)c1C(=O)NCCc1cccc(Cl)c1
EC50 (parasite growth; Dd2): 261 ± 87 nM

COCC(=O)N1CCC[C@H](C(=O)NCc2nc(-c3ccc(C#N)cc3)cs2)C1
EC50 (Dd2; with: WLW-vs fixed ratio 0.40:0.60): 6.3 nM and 3.5 nM

COc1ccccc1Cn1ccnc1SCC(=O)Nc1cc(C(F)(F)F)ccc1Cl
EC50 (parasite growth; Dd2): 133 ± 11 nM

NCCOCC(=O)N1CCCC(C(=O)NCc2nc(-c3ccc(-c4ccc(F)cc4)cc3)cs2)C1 (stereo not shown)
EC50 (parasite growth, SYBR Green; 3D7, asexual blood stage; 72 h): 73 ± 33 nM

CN1CCN(S(=O)(=O)c2ccc(-c3ccc4ncnc(Nc5ccc(OCc6cccc(F)c6)c(Cl)c5)c4c3)cc2)CC1
EC50 (parasite growth, SYBR Green fluorescence; C235 (TM91C235), drug-resistant): 39 nM

CCOC(=O)c1cn(CC)c2cc(O[C@H]3CCN(C(=O)OC(C)(C)C)C3)ccc2c1=O
EC50 (parasite growth, SYBR Green; 3D7 DHODH E182D; 72 h): 778 ± 120 nM

CC(C)C[C@H](NC(=O)[C@H](Cc1c[nH]c2ccccc12)NC(=O)CN1CCOCC1)C(=O)N[C@H](/C=C/S(C)(=O)=O)Cc1c[nH]c2ccccc12
EC50 (Dd2 β5 S27F CRISPR-edited): 7.7 ± 1.3 nM

CN(CC(=O)Nc1ccc(N(C)c2ccc(Cl)cc2)cc1)c1ccccc1N1CCCC1=O
EC50 (parasite growth, LDH; 3D7 population E, L562R mutant; 72 h): 423 nM

A few entries again:
CN1CCN(S(=O)(=O)c2ccc(-c3ccc4ncnc(Nc5ccc(OCc6cccc(F)c6)c(Cl)c5)c4c3)cc2)CC1
EC50 (parasite growth, SYBR Green fluorescence; C235 (TM91C235), drug-resistant): 39 nM

CCOC(=O)c1cn(CC)c2cc(O[C@H]3CCN(C(=O)OC(C)(C)C)C3)ccc2c1=O
EC50 (parasite growth, SYBR Green; 3D7 DHODH E182D; 72 h): 778 ± 120 nM

CC(C)C[C@H](NC(=O)[C@H](Cc1c[nH]c2ccccc12)NC(=O)CN1CCOCC1)C(=O)N[C@H](/C=C/S(C)(=O)=O)Cc1c[nH]c2ccccc12
EC50 (Dd2 β5 S27F CRISPR-edited): 7.7 ± 1.3 nM

CN(CC(=O)Nc1ccc(N(C)c2ccc(Cl)cc2)cc1)c1ccccc1N1CCCC1=O
EC50 (parasite growth, LDH; 3D7 population E, L562R mutant; 72 h): 423 nM
